{"data": "Experimental data pooled from the literature", "note": "Numbered parts are unrelated; each lists some results of a single study. Substitutions count along the parent as printed."}
{"data": "Series 1", "target": "ABI1, truncated, D143A, DHFR fusion (Arabidopsis thaliana, UniProt P49597)", "technique": "DHFR PCA, dose-response", "matrix": "yeast", "notes": "Hill fit, mean, not affinity", "with": "(+)-ABA, dose series", "reading": "lower = more sensitive", "starting sequence": "PYL1, truncated, DHFR fusion (Arabidopsis thaliana, UniProt Q8VZS8); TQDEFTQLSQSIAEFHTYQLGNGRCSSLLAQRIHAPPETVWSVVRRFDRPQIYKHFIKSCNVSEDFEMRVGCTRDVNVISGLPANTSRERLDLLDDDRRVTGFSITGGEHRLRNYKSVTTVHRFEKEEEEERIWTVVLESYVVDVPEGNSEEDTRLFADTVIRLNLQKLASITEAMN"}
{"Change": "R132F", "ABA EC50": "2.09 µM"}
{"Change": "V121C", "ABA EC50": "18.7 µM"}
{"Change": "K116L", "ABA EC50": "421 µM"}
{"Change": "A158G", "ABA EC50": "52.9 µM"}
{"Change": "R46A", "ABA EC50": "3.42 µM"}
{"Change": "T86R", "ABA EC50": "6.91 µM"}
{"Change": "E130K", "ABA EC50": "2.07 µM"}
{"Change": "V136H", "ABA EC50": "84.6 µM"}
{"data": "Series 2", "target": "CCNA2, cyclin fold, Cln2 fusion (human)", "technique": "yeast growth competition, sequencing", "matrix": "yeast", "notes": "strong parent motif", "relative to": "not given", "reading": "higher = stronger binding", "starting sequence": "viral docking peptide; TSVRRALFTGGSD; partner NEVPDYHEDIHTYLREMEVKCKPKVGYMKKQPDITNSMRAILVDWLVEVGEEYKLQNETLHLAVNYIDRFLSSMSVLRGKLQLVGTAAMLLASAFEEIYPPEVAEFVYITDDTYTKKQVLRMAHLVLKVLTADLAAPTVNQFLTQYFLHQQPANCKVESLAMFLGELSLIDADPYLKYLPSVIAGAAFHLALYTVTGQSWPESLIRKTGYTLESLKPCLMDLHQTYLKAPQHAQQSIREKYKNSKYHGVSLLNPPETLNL"}
{"Change": "G11A", "normalised enrichment score": 6.07}
{"Change": "G11T", "normalised enrichment score": 6.57}
{"Change": "S2I", "normalised enrichment score": 5.2}
{"Change": "S12F", "normalised enrichment score": 5.85}
{"Change": "S2W", "normalised enrichment score": 4.3}
{"Change": "T9V", "normalised enrichment score": 6.52}
{"Change": "F8G", "normalised enrichment score": -0.012}
{"Change": "V3W", "normalised enrichment score": 3.2}
{"Change": "R4I", "normalised enrichment score": 2.55}
{"Change": "V3L", "normalised enrichment score": 1.66}
{"Change": "G10Y", "normalised enrichment score": 6}
{"Change": "G11K", "normalised enrichment score": 6.27}
{"Change": "A6C", "normalised enrichment score": 6.84}
{"Change": "G10S", "normalised enrichment score": 6.74}
{"Change": "S2D", "normalised enrichment score": 4.9}
{"data": "Series 3", "target": "Interferon regulatory factor 7, full length, phosphomimetic (IRF7, Homo sapiens, UniProt Q92985, residues 1-503, S471D/S472D/S475D/S476D/S477D/S483D/S484D/S487D)", "technique": "protein-binding microarray", "form": "double-stranded DNA, one strand shown", "matrix": "in vitro", "tested at": "2200 nM top", "notes": "60-bp whole probe", "with": "salmon DNA 0.4 mg/ml", "relative to": "random background probes", "reading": "higher = stronger binding", "constant ends, left off below": "GCCTAGCAC … GTGCTAGGTCTTGATTCGCTTGACGCTGCTG", "Construct (chain)": "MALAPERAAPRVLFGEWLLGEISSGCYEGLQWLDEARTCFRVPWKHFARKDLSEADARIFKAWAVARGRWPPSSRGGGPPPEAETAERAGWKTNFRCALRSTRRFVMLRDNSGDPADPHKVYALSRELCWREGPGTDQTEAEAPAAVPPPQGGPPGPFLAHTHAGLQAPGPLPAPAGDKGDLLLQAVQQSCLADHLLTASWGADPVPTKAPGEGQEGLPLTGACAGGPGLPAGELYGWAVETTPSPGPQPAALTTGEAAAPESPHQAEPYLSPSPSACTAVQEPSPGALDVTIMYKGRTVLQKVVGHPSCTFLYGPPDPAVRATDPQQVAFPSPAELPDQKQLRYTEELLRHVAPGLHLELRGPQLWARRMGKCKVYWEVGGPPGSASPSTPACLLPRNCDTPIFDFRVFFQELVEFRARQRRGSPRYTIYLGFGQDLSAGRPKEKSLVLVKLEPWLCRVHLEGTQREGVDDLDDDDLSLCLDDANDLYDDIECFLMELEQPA"}
{"Oligonucleotide": "TCACCTTCCCCTCTAGGACT", "fitted relative affinity": "1.77 z-score"}
{"Oligonucleotide": "GATGGTCTCGGTATCGGGAC", "fitted relative affinity": "0.326 z-score"}
{"Oligonucleotide": "TTAGATTTCAGACTGGATTA", "fitted relative affinity": "-0.106 z-score"}
{"Oligonucleotide": "TAAGGACTGCTTCTCCTTTA", "fitted relative affinity": "0.781 z-score"}
{"Oligonucleotide": "CTGTTTTTGCTTTCCTTCTT", "fitted relative affinity": "5.88 z-score"}
{"Oligonucleotide": "GACGGCCTCCTTCTCCTGAC", "fitted relative affinity": "0.423 z-score"}
{"Oligonucleotide": "GACGATCTCAGACCGGAGAC", "fitted relative affinity": "-0.245 z-score"}
{"Oligonucleotide": "GACGGTCTTGGACTGGGGAC", "fitted relative affinity": "-0.739 z-score"}
{"data": "Series 4", "target": "tungstate, free oxyanion", "technique": "microfluidic competitive inhibition", "matrix": "in vitro, cell-free expressed", "tested at": "not given", "notes": "derived from inhibition constants, unchanged parent 2230 nM", "reading": "lower = stronger binding", "starting sequence": "PafA, mature enzyme, eGFP fusion (Elizabethkingia meningoseptica, UniProt Q9KJX5); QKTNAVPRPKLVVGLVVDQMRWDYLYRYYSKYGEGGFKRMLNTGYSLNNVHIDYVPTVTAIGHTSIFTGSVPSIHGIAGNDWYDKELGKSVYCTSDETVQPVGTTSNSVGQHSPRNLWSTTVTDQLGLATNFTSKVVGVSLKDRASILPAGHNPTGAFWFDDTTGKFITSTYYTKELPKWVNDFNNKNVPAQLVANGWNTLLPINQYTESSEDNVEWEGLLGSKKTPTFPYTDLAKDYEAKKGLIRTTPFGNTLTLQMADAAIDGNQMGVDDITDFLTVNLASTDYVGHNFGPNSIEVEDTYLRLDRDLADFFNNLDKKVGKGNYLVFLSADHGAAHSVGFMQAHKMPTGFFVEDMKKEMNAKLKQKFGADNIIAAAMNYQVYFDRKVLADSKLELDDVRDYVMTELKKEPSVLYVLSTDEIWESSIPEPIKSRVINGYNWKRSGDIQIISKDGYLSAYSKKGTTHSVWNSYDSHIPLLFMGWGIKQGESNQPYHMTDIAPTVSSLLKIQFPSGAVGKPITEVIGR"}
{"Change": "K387V", "oxyanion analog dissociation constant": "2.43 µM"}
{"Change": "N294V", "oxyanion analog dissociation constant": "2.46 µM"}
{"Change": "S451G", "oxyanion analog dissociation constant": "2.2 µM"}
{"Change": "N491V", "oxyanion analog dissociation constant": "2.38 µM"}
{"Change": "A390V", "oxyanion analog dissociation constant": "2.37 µM"}
